Measured values gathered from unrelated publications.
Compare with care: the assays were run in different laboratories. ± gives the spread as reported. In brackets after ≈: the same amount, converted by molar mass.

CC(=O)N1CCN(c2ccc(C(=O)N[C@H](Cc3c[nH]c4ccccc34)C(=O)Nc3ccncc3)c(F)c2)CC1
inhibition (Trypanosoma cruzi; Y luc, mouse; oral, 25 mg/kg twice daily, 4 days, 20% solutol vehicle): 0%

C#CCn1cc(/C=C2\SC(=S)NC2=O)c2cc([N+](=O)[O-])ccc21
IC50 (Trypanosoma brucei rhodesiense; trypomastigotes, IL1501): 78000 ± 2900 nM

Cc1ccc(C(C)C)c(OCCn2c(=S)[nH]c3ccccc32)c1
inhibition (Saccharomyces cerevisiae; reporter gene, item: Rlm1-lacZ; up to 20 µM, added: Calcofluor white): inhibited

C[C@H]1c2cccc(O)c2C(=O)C2=C(O)[C@]3(O)C(=O)C(C(N)=O)=C(O)[C@@H](N(C)C)[C@@H]3[C@@H](O)[C@@H]21
FIC index (Staphylococcus aureus; checkerboard broth microdilution; ATCC 25923; added: ranalexin): 0.25

COc1c(Cl)c(C)c(C=O)c(O)c1C/C=C(C)/C=C/[C@@]1(C)[C@H](C)CCC(=O)[C@@H]1C
IC50 (Wickerhamomyces anomalus; O2 uptake, inhibitor; mitochondria; added: malate and pyruvate 15 mM): 5900 nM

CN(C)c1ccc(O)c2c1C[C@H]1C[C@H]3[C@H](N(C)C)C(O)=C(C(N)=O)C(=O)[C@@]3(O)C(O)=C1C2=O
worm length reduction (Litomosoides sigmodontis; mouse; i.p., 25 mg/kg/day for 10 days): 81.7%

Cc1ccc(S(=O)(=O)N2C(=O)CSC2c2cccc(F)c2)cc1 (stereo not drawn)
MIC (Streptococcus pneumoniae; broth microdilution; ATCC 49619): 32 µg/mL (≈ 91.1 µM)

CC(C=CC1(C)C(C)CCC(=O)C1C)=CCc1c(O)c(C=O)c(C)c(Cl)c1OC(=O)c1cccnc1 (stereo not drawn)
IC50 (Wickerhamomyces anomalus; O2 uptake, inhibitor; mitochondria; added: NADH 1 mM): 400 nM

Cc1ccc(S(=O)(=O)N2C(=O)CSC2c2ccccc2F)cc1 (stereo not drawn)
MIC (Streptococcus pneumoniae; broth microdilution; ATCC 49619): 64 µg/mL (≈ 182 µM)

O=C(Nc1ccc(NCc2ccc(F)cc2)cc1Cl)c1cc(Cl)ccc1O
virus titre log reduction (human respiratory syncytial virus; infectious progeny production; A549; 10 µM, 15 h; relative to: vehicle): ~1.5 log10

CCC(CC)COC(=O)[C@H](C)N[P@](=O)(OC[C@H]1O[C@@](C#N)(c2ccc3c(N)ncnn23)[C@H](O)[C@@H]1O)Oc1ccccc1
cell viability (Betacoronavirus 1; virus-induced cytotoxicity; Huh-7.5, HCoV-OC43; 1 µM, 5 days): 100 ± 4%

CO/N=C(\N)c1ccc(-c2cncc(-c3ccc(/C(N)=N\OC)nc3)n2)cn1
cured mice (Trypanosoma brucei rhodesiense; STIB900, mouse, acute infection; oral, 25 mg/kg daily, 4 days, parasite-free survival 60 days): 25%

CC[C@H]1OC(=O)[C@H](C)[C@@H](O[C@H]2C[C@@](C)(OC)[C@@H](O)[C@H](C)O2)[C@H](C)[C@@H](O[C@@H]2O[C@H](C)C[C@H](N(C)C)[C@H]2O)[C@](C)(O)C[C@@H](C)CN(C)[C@H](C)[C@@H](O)[C@]1(C)O
sensitive strains (Streptococcus pneumoniae; community-acquired pneumonia patients; Fine score below 70): 100%

N/C(=N\O)c1ccc(-c2cncc(-c3ccc(/C(N)=N/O)cn3)n2)cc1
cured mice (Trypanosoma brucei rhodesiense; STIB900, mouse, acute infection; oral, 25 mg/kg daily, 4 days, parasite-free survival 60 days): 50%

Fc1cc(-c2nc3ccc(Cl)cc3[nH]2)ccc1OCc1cn(CCN2CCOCC2)nn1
MIC (Enterococcus faecalis; microbial growth, broth dilution; ATCC29212): > 256 µg/mL

CC(/C=C/[C@@]1(C)[C@H](C)CCC(=O)[C@@H]1C)=C\Cc1c(O)c(Cl)c(C)c(C=O)c1O
IC50 (Wickerhamomyces anomalus; O2 uptake, inhibitor; mitochondria; added: glycerol 3-phosphate 20 mM): 43 nM

C[C@@H](O)[C@H]1C(=O)N2C(C(=O)O)=C(S[C@@H]3CN[C@H](C(=O)N(C)C)C3)[C@H](C)[C@H]12
FIC index (Staphylococcus aureus; checkerboard broth microdilution; clinical isolate 15-99; added: magainin II): 0.187

NS(=O)(=O)c1nnc(NC(=O)CCc2ccccc2)s1
MIC90 (Neisseria gonorrhoeae; broth microdilution; clinical isolates): 4 µg/mL (≈ 12.8 µM)

CC[C@H](C)[C@H](NC(=O)[C@H](CCCCN)NC(=O)[C@H](CCC(=O)O)NC(=O)[C@H](CCCCN)NC(=O)[C@H](CO)NC(=O)[C@H](CCCCN)NC(=O)[C@H](CCCNC(=N)N)NC(=O)[C@H](Cc1ccccc1)NC(=O)[C@H](Cc1ccccc1)NC(=O)[C@H](CC(=O)O)NC(=O)CNC(=O)[C@H](CC(C)C)NC(=O)[C@@H](N)CC(C)C)C(=O)NCC(=O)N[C@@H](CCCCN)C(=O)N[C@@H](CCC(=O)O)C(=O)N[C@@H](Cc1ccccc1)C(=O)N[C@@H](CCCCN)C(=O)N[C@@H](CCCNC(=N)N)C(=O)N[C@H](C(=O)N[C@H](C(=O)N[C@@H](CCC(N)=O)C(=O)N[C@@H](CCCNC(=N)N)C(=O)N[C@H](C(=O)N[C@@H](CCCCN)C(=O)N[C@@H](CC(=O)O)C(=O)N[C@@H](Cc1ccccc1)C(=O)N[C@@H](CC(C)C)C(=O)N[C@@H](CCCNC(=N)N)C(=O)N[C@@H](CC(N)=O)C(=O)N[C@@H](CC(C)C)C(=O)N[C@H](C(=O)N1CCC[C@H]1C(=O)N[C@@H](CCCNC(=N)N)C(=O)N[C@H](C(=O)N[C@@H](CCC(=O)O)C(=O)N[C@@H](CO)C(=O)O)[C@@H](C)O)C(C)C)[C@@H](C)CC)C(C)C)[C@@H](C)CC
HBsAg level (hepatitis B virus; item: HBsAg in medium; HepG2-NTCP; 10 µM, continuous treatment; relative to: control treated): decreased

CC[C@H]1OC(=O)[C@H](C)[C@@H](O[C@H]2C[C@@](C)(OC)[C@@H](O)[C@H](C)O2)[C@H](C)[C@@H](O[C@@H]2O[C@H](C)C[C@H](N(C)C)[C@H]2O)[C@](C)(O)C[C@@H](C)C(=O)[C@H](C)[C@@H](O)[C@]1(C)O
sensitive strains (other non-fermenting bacteria; community-acquired pneumonia patients; Fine score 70 or more): 0%

C#CCNC(=O)C(=O)c1c(C)c(C(=O)Nc2ccc(F)c(F)c2)n(C)c1C
EC50 (hepatitis B virus; viral replication, chemiluminescence immunoassay, item: secreted HBeAg; HBV-infected HepG2-NTCP cells; day 8 post-infection, daily from day 4 post-infection): 32.1 µM

Cc1ncc([N+](=O)[O-])n1CCO
inhibition (Helicobacter pylori; bacterial growth, OD600; 26695; 12 µM): 89 to 92%

CO/N=C(\C(=O)N[C@@H]1C(=O)N2C(C(=O)O)=C(CSc3nc(=O)c(=O)[nH]n3C)CS[C@H]12)c1csc(N)n1
FIC index (Staphylococcus aureus; checkerboard broth microdilution; clinical isolate 14-99; added: magainin II): 0.25

CC(C)=CCC/C(C)=C/CO
time to 1 log10 kill (Cryptococcus neoformans; CN, PBS; 2 x MIC, up to 48 h, 37 °C; relative to: untreated): 9 to 10 h

C/C=C(C)/C=C/C=C/[C@H](OC)[C@@H](C)[C@@H](OC)[C@@H](C)CCc1oc2c(O)c(OC)cc(OC)c2c(=O)c1C
IC50 (Wickerhamomyces anomalus; O2 uptake, inhibitor; mitochondria; added: succinate 15 mM): 28 nM

CC[C@H]1OC(=O)[C@H](C)[C@@H](O[C@H]2C[C@@](C)(OC)[C@@H](O)[C@H](C)O2)[C@H](C)[C@@H](O[C@@H]2O[C@H](C)C[C@H](N(C)C)[C@H]2O)[C@](C)(OC)C[C@@H](C)C(=O)[C@H](C)[C@@H](O)[C@]1(C)O
FIC index (Staphylococcus aureus; checkerboard; ATCC 25923; added: magainin II): 0.75

O=C(/C=C/c1cccc(O)c1)c1ccc(F)cc1
EC50 (Plasmodium knowlesi; parasite growth; 24 h, blood stage): 29 µM
